Experimental data from different studies.
Lines come from different studies, so protocols differ. ± marks the error that the study gave.

`CNc1nc(SC)nc2ccccc12` gave an intrinsic clearance of greater than 30 mL/min/g (mouse liver microsomes).
For `Cc1ccc2nc(C)c(C(=O)NCc3ccc(C(F)(F)F)cc3)n2c1`, the intrinsic clearance was 46 ml/min/g protein (human liver microsomes).
The intrinsic clearance of `COc1ccc(NC(=O)CN(C)S(=O)(=O)c2cc(C)cc3cn[nH]c23)cc1Cl` is reported as greater than 768 µL/min/mg (human liver microsomes).
For `CCc1ccc([C@@H]2C[C@H](C(F)(F)F)n3ncc(C(=O)NCc4ccc(OC)cc4)c3N2)cc1`, the intrinsic clearance was 1.8 mL/min/g (human liver microsomes).
`CN(C(=O)Cc1ccc(Cl)c(Cl)c1)[C@@H](CN1CCCC1)c1ccccc1` gave an intrinsic clearance of 1.4 mL/min/g (human liver microsomes).
With `Cc1ccc2nc(C)c(C(=O)NCc3cccs3)n2c1` the intrinsic clearance was 3.9 mL/min/g (human liver microsomes).
`CN(C)CCNC(=O)c1cc(-c2ccccc2)nc2ccccc12` gave an intrinsic clearance of 246 mL/min/kg (mouse liver microsomes).
`CN(C(=O)Cc1ccc(-c2ccccc2)cc1)[C@@H]1CCCC[C@H]1N1CCCC1` has an intrinsic clearance of 2.7 mL/min/g (mouse liver microsomes).
`Cc1ccc2nc(C(F)(F)F)c(C(=O)NCc3cccc(Cl)c3)n2c1` has an intrinsic clearance of greater than 30 mL/min/g (mouse liver microsomes).
With `CC(C)(C)c1cc(C(C)(C)C)c(-n2cc(-c3cnc4ccccc4c3O)nn2)cc1O` the intrinsic clearance was 56.2 mL/min/kg (human liver microsomes).
`Cc1cnc(N)c(S(=O)(=O)N(C)CC(=O)Nc2ccc(OCCN(C)C)c(Cl)c2)c1` has an intrinsic clearance of 2 µL/min/mg (human liver microsomes).
`O=C(O)CCn1c(=O)oc2cc(Cl)c(Cl)cc21` has an intrinsic clearance of less than 0.5 mL/min/g (dog liver microsomes).
The intrinsic clearance of `Cc1cc(S(=O)(=O)N(C)CC(=O)Nc2ccn(C)c(=O)c2)c2[nH]ncc2c1` is reported as -11 µL/min/mg (human liver microsomes).
`c1cc2c(s1)CCOC21CCN(Cc2ccc3c(c2)OCCO3)CC1` has an intrinsic clearance of 25.1 mL/min/g (human liver microsomes).
`COC(=O)C(O)=CC(=O)c1ccccc1Br` gave an intrinsic clearance of 3.2 ± 0.7 mL/min/g (mouse liver microsomes; 0.5 µM, 30 min).
`Cc1cnc(N)c(S(=O)(=O)N(C)CC(=O)Nc2ccc(N3CCOCC3)c(Cl)c2)c1` has an intrinsic clearance of 18 µL/min/mg (human liver microsomes).
`O=C(NC12CC3CC(CC(C3)C1)C2)c1cc2cc(Cl)ccc2[nH]1` has an intrinsic clearance of 3.3 mL/min/g (mouse liver microsomes).
For `NC1CC1c1ccc(NC(=O)c2cccc(NC(=O)OCc3ccccc3)c2)cc1` (stereo not shown), the intrinsic clearance was 12.2 ± 1.7 µL/min/mg protein (human liver microsomes; 1 µM).
The intrinsic clearance of `Cc1cnc(N)c(S(=O)(=O)N(C)CC(=O)Nc2ccc(=O)n(C)c2)c1` is reported as -18 µL/min/mg (human liver microsomes).
`COc1ccc2nc(C)cc(OCC(=O)Nc3ccccc3OC)c2c1` gave an intrinsic clearance of 5.1 mL/min/g (human liver microsomes).
`Cc1cc(S(=O)(=O)N(C)CC(=O)Nc2ccc(N3CCOCC3)c(Cl)c2)c2[nH]ncc2c1` has an intrinsic clearance of 195 µL/min/mg (human liver microsomes).
`O=C(Cc1ccc(Cl)c(Cl)c1)NCCN1CCCC1` has an intrinsic clearance of 0.6 mL/min/g (human liver microsomes).
